Published values of several laboratories.
Each line is one published result; not all experiments were run side by side. ± marks the error that the study gave.

`COc1cc2c(cc1OC)CN(CCc1ccc(NC(=O)c3cccc4c(=O)c5cccc(OC)c5[nH]c34)cc1)CC2` — result for “elimination rate constant”: 1.92e-05 s⁻¹ (CD-1 mouse, male, lung; intraperitoneal, 0.3 mg/kg).
`C[C@@H]1OC(=O)NN=C1c1ccc(-c2ccc(F)cc2)c(C(F)(F)F)c1`: “patients with adverse event” 0% (phase I trial, measured: Anaemia all grades; human patients; 5 mg once daily).
With `CC(C)C[C@@H]1NC(=O)CNC(=O)[C@H](CC(N)=O)NC(=O)[C@H](CCCNC(=N)N)NC(=O)[C@H]([C@@H](C)O)NC(=O)[C@@H]2CSSC[C@@H]3NC(=O)[C@H]([C@@H](C)O)NC(=O)CNC(=O)CNC(=O)[C@H](CCCCN)NC(=O)[C@@H]4CSSC[C@H](NC(=O)[C@H]([C@@H](C)O)NC(=O)[C@H](CSSC[C@H](NC(=O)[C@H](C(C)C)NC(=O)[C@@H]5CCCN5C1=O)C(=O)NCC(=O)N[C@@H](CCC(=O)O)C(=O)N[C@@H]([C@@H](C)O)C(=O)N4)NC(=O)CNC(=O)[C@@H]1CCCN1C(=O)[C@H]([C@@H](C)O)NC(=O)[C@H](CC(N)=O)NC3=O)C(=O)N[C@@H](CO)C(=O)N[C@@H](Cc1c[nH]c3ccccc13)C(=O)N1CCC[C@H]1C(=O)N[C@@H](C(C)C)C(=O)N2` the remaining peptide was 97.1 ± 0.1% (HPLC; ammonium bicarbonate; 180 µM, 7 days, pH 9.0, 25 °C, deamidation stability).
For `CN1CC[C@@H](c2c(O)cc(O)c3c(=O)cc(-c4ccc(C(F)(F)F)cc4Cl)oc23)[C@@H]1CO`, “patients with adverse event” read 0% (measured: Sepsis; AML; oral, 100 mg, intermittent dosing).
`CCN1[C@@H](C(=O)NC23CCC(C(=O)O)(CC2)CC3)[C@H](c2cccc(Cl)c2F)[C@]2(C(=O)Nc3cc(Cl)ccc32)C12CCCCC2` gave an Embolism incidence of 0% (patients with advanced solid tumours; oral, 150 mg).
For `CC[C@H](C)[C@H](NC(C)=O)C(=O)N[C@H]1CSSC[C@@H](C(=O)N[C@H](C(N)=O)[C@@H](C)O)NC(=O)[C@H](CCCNC(=N)N)NC(=O)[C@H](Cc2cnc[nH]2)NC(=O)[C@H](C)NC(=O)CNC(=O)[C@H](Cc2c[nH]c3ccccc23)NC(=O)[C@H](CC(=O)O)NC(=O)[C@H](CCC(N)=O)NC(=O)[C@H](Cc2cn(C)c3ccccc23)NC(=O)[C@H](C(C)C)NC1=O`, “log retention factor” read 0.263 (isocratic RP-HPLC; C18 column; pH 7.4, 25 °C, elution method 2; higher = more lipophilic).
With `CC(C)C[C@@H]1NC(=O)CNC(=O)[C@H](CC(N)=O)NC(=O)[C@H](CCCNC(=N)N)NC(=O)[C@H]([C@@H](C)O)NC(=O)[C@@H]2CSSC[C@@H]3NC(=O)[C@H]([C@@H](C)O)NC(=O)CNC(=O)CNC(=O)[C@H](C(C)C)NC(=O)[C@@H]4CSSC[C@H](NC(=O)[C@H]([C@@H](C)O)NC(=O)[C@H](CSSC[C@H](NC(=O)[C@H](C(C)C)NC(=O)[C@@H]5CCCN5C1=O)C(=O)NCC(=O)N[C@@H](CCC(=O)O)C(=O)N[C@@H]([C@@H](C)O)C(=O)N4)NC(=O)CNC(=O)[C@@H]1CCCN1C(=O)[C@H]([C@@H](C)O)NC(=O)[C@H](CCCCN)NC3=O)C(=O)N[C@@H](CO)C(=O)N[C@@H](Cc1c[nH]c3ccccc13)C(=O)N1CCC[C@H]1C(=O)N[C@@H](C(C)C)C(=O)N2` the remaining peptide was 76.8 ± 4.1% (HPLC; ammonium bicarbonate 0.1 M; 180 µM, 7 days, pH 9.0, 37 °C, deamidation stability).
`COc1ncccc1-c1cnn2ccc(N3CCN(C(=O)OC(C)C)CC3)nc12` — result for “free drug concentration”: 1 nM (rat, thermal hyperalgesia model, plasma; oral, 0.3 mg/kg, 180 min).
The Diarrhea incidence of `COc1cc2c(Oc3ccc4[nH]c(C)cc4c3F)ccnc2cc1OCC1(N)CC1` is reported as 50% (paediatric recurrent refractory sarcoma; 10 mg).
For `CC(=O)c1c([O-])cc(C)oc1=O.[Na+]`, “volume of distribution” read 0.76 ± 0.03 L/kg (female Wistar rat, plasma; oral, 200 mg/kg, no CYP inhibitor).
For `O=C(Nc1ccccc1)C1CCN(C(=O)Oc2cccnc2)CC1`, “subjects with tremor” read 7.7% (adverse event reporting; healthy women; oral, 100 mg).
`Cc1c(COC(=O)[C@@H]2[C@H](/C=C(\Cl)C(F)(F)F)C2(C)C)cccc1-c1ccccc1` (racemic): “enzyme contribution to clearance” 6.97% (measured: CYP2C8; human, age 5 years, recombinant human CYP2C8; 0.1 µM).
`CC(C)NCCCC[C@@H]1NC(=O)[C@H](Cc2ccc(O)cc2)NC(=O)[C@H](Cc2ccccc2)NC(=O)CC[C@H](C(=O)N[C@@H](CCCCNC(C)C)C(=O)N[C@@H](CCCCNC(=O)[C@H](CCC(=O)O)NC(=O)[C@H](CCC(=O)O)NC(=O)[C@H](CCC(=O)O)NC(=O)CN2CCN(CC(=O)O)CCN(CC(=O)O)CC2)C(N)=O)NC(=O)CNC(=O)[C@H](Cc2ccc3ccccc3c2)NC(=O)[C@@H](CCCNC(=N)N)NC1=O` [fluorine-18 labelled] gave a parent fraction of 63.5% (rhesus macaque, plasma; 10 min post-injection).
`Cn1cncc1-c1c(F)cncc1NC(=O)c1c(N)nn2cc(F)cnc12` — result for “dose-limiting toxicity anaemia”: 13% (human patients; oral, 130 mg once daily, 21 days).
`CN1CCN(S(=O)(=O)c2cc([N+](=O)[O-])ccc2N(CCOS(C)(=O)=O)CCOS(C)(=O)=O)CC1` gave an AUMC(0-inf) of 0.85 µM·h² (naive female NSG mice, plasma; intraperitoneal, 10 mg/kg).
For `CCc1ccc(CC/C=C/c2ccc3c(c2)C(=O)CC3)cc1`, the chloride was 104 mM (Sprague-Dawley rat, male, serum; oral, 30 mg/kg/day, 14 days).
`CCC[C@@](N)(CO)CCc1ccc(OCCCCCC(C)C)cc1` gave a Tmax of 6 h (hound dogs, male; oral, 5 mg/kg, capsule, fed state, median).
`O=C1Nc2cc3[nH]nc(-c4ccncc4)c3cc2CN1Cc1ccccc1`: “patients with diarrhoea” 0% (CTCAE v4.03; advanced solid tumour patients; intravenous, 4.8 mg/kg, schedules 1/2).
`COc1ccc2nc3cc(Cl)ccc3c(Nc3cc(CN4CCCC4)c(O)c(CN4CCCC4)c3)c2n1` has a neutrophils of 25.1% (mouse, blood; intraperitoneal, 57 mg/kg).
For `COc1ncnn2ccc(-c3cnc4nc(C)n(Cc5nnc([C@@H](C)F)o5)c4c3)c12`, “patients with nail discoloration” read 0% (human; oral, dose not given, grade 4).
For `NC(=O)[C@H]1CCN(c2ncnc(N)c2F)C[C@@H]1N1CCC[C@@H](Nc2cc(Cl)cc(C(F)(F)F)c2)C1=O`, “grade ≥3 anaemia” read 25% (B-cell malignancy patients; oral, 164 mg twice daily, dose).
For `Clc1cc(Cl)c(-c2cc(Cl)ccc2Cl)c(Cl)c1`, the log K(PDMS-water) was 5.99 ± 0.04 (fresh water; 20 °C, S100 sampler, 100 µm).
`CO[C@H]1C[C@@H]2CC[C@@H](C)[C@@](O)(O2)C(=O)C(=O)N2CCCC[C@H]2C(=O)O[C@H]([C@H](C)C[C@@H]2CC[C@@H](OC(=O)NCCOCCOCCOCCOCCOCCOCCOCCOCCC(=O)N3CCc4cc(Cn5nc(-c6ccc7oc(N)nc7c6)c6c(N)ncnc65)ccc4C3)[C@H](OC)C2)C[C@@H](O)[C@H](C)/C=C(\C)[C@@H](O)[C@@H](OC)C(=O)[C@H](C)C[C@H](C)/C=C/C=C/C=C/1C` gave a dyspnoea incidence of 18.8% (patients with advanced solid tumours; intravenous, 8 mg weekly, any grade).
For `O=S(=O)(Nc1ccccc1)c1ccc(NC(=S)Nc2ccccc2)cc1`, “blood chemistry level” read 0.22 mg/dL (measured: CREA; female mouse, blood; oral, 5 mg/kg daily, 14 days).
The log K(PDMS-water) of `Clc1cc(-c2cc(Cl)c(Cl)c(Cl)c2)cc(Cl)c1Cl` is reported as 6.35 ± 0.07 (fresh water; 20 °C, S100 sampler, 100 µm).
`O=C(Nc1ccccc1)C1CCN(C(=O)Oc2cccnc2)CC1` gave a TEAE incidence of 8% (measured: abdominal discomfort; healthy female humans; concentration not given, safety set, all doses pooled).
The reticulocytes of `O.O.O.O.O.O.[Cl-].[Cl-].[Co+2]` is reported as 19.7% (Crl:CD(SD) rat female, blood; oral, 2.48 mg Co/kg/day, 90 days; relative to: red blood cells).

Excerpt of the above:
`CO[C@H]1C[C@@H]2CC[C@@H](C)[C@@](O)(O2)C(=O)C(=O)N2CCCC[C@H]2C(=O)O[C@H]([C@H](C)C[C@@H]2CC[C@@H](OC(=O)NCCOCCOCCOCCOCCOCCOCCOCCOCCC(=O)N3CCc4cc(Cn5nc(-c6ccc7oc(N)nc7c6)c6c(N)ncnc65)ccc4C3)[C@H](OC)C2)C[C@@H](O)[C@H](C)/C=C(\C)[C@@H](O)[C@@H](OC)C(=O)[C@H](C)C[C@H](C)/C=C/C=C/C=C/1C` gave a dyspnoea incidence of 18.8% (patients with advanced solid tumours; intravenous, 8 mg weekly, any grade).
`O=C1Nc2cc3[nH]nc(-c4ccncc4)c3cc2CN1Cc1ccccc1`: “patients with diarrhoea” 0% (CTCAE v4.03; advanced solid tumour patients; intravenous, 4.8 mg/kg, schedules 1/2).
For `CC[C@H](C)[C@H](NC(C)=O)C(=O)N[C@H]1CSSC[C@@H](C(=O)N[C@H](C(N)=O)[C@@H](C)O)NC(=O)[C@H](CCCNC(=N)N)NC(=O)[C@H](Cc2cnc[nH]2)NC(=O)[C@H](C)NC(=O)CNC(=O)[C@H](Cc2c[nH]c3ccccc23)NC(=O)[C@H](CC(=O)O)NC(=O)[C@H](CCC(N)=O)NC(=O)[C@H](Cc2cn(C)c3ccccc23)NC(=O)[C@H](C(C)C)NC1=O`, “log retention factor” read 0.263 (isocratic RP-HPLC; C18 column; pH 7.4, 25 °C, elution method 2; higher = more lipophilic).
With `CC(C)C[C@@H]1NC(=O)CNC(=O)[C@H](CC(N)=O)NC(=O)[C@H](CCCNC(=N)N)NC(=O)[C@H]([C@@H](C)O)NC(=O)[C@@H]2CSSC[C@@H]3NC(=O)[C@H]([C@@H](C)O)NC(=O)CNC(=O)CNC(=O)[C@H](CCCCN)NC(=O)[C@@H]4CSSC[C@H](NC(=O)[C@H]([C@@H](C)O)NC(=O)[C@H](CSSC[C@H](NC(=O)[C@H](C(C)C)NC(=O)[C@@H]5CCCN5C1=O)C(=O)NCC(=O)N[C@@H](CCC(=O)O)C(=O)N[C@@H]([C@@H](C)O)C(=O)N4)NC(=O)CNC(=O)[C@@H]1CCCN1C(=O)[C@H]([C@@H](C)O)NC(=O)[C@H](CC(N)=O)NC3=O)C(=O)N[C@@H](CO)C(=O)N[C@@H](Cc1c[nH]c3ccccc13)C(=O)N1CCC[C@H]1C(=O)N[C@@H](C(C)C)C(=O)N2` the remaining peptide was 97.1 ± 0.1% (HPLC; ammonium bicarbonate; 180 µM, 7 days, pH 9.0, 25 °C, deamidation stability).
